# Experimental data from different studies.
# A part holds a random share of what one study measured.
# Chain of UniProt Q05655 (whole entry, looked up): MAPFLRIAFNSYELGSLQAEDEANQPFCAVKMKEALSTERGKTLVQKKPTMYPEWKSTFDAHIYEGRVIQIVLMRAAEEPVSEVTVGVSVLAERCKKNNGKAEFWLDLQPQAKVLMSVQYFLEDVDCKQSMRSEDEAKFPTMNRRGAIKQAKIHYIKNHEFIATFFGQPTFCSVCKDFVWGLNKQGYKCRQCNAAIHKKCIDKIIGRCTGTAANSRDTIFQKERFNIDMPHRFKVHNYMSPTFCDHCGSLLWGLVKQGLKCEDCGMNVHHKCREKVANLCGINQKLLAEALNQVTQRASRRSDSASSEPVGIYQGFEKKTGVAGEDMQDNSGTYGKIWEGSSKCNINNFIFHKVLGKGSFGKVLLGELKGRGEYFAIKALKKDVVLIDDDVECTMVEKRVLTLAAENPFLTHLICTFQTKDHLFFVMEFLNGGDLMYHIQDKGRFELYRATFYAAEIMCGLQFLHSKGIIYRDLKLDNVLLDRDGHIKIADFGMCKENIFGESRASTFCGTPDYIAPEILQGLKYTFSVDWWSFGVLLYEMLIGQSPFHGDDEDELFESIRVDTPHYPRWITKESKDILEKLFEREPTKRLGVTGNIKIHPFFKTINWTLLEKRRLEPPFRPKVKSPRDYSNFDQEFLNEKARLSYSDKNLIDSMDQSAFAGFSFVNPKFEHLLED
# Chain of UniProt Q9NYY3 (whole entry, looked up): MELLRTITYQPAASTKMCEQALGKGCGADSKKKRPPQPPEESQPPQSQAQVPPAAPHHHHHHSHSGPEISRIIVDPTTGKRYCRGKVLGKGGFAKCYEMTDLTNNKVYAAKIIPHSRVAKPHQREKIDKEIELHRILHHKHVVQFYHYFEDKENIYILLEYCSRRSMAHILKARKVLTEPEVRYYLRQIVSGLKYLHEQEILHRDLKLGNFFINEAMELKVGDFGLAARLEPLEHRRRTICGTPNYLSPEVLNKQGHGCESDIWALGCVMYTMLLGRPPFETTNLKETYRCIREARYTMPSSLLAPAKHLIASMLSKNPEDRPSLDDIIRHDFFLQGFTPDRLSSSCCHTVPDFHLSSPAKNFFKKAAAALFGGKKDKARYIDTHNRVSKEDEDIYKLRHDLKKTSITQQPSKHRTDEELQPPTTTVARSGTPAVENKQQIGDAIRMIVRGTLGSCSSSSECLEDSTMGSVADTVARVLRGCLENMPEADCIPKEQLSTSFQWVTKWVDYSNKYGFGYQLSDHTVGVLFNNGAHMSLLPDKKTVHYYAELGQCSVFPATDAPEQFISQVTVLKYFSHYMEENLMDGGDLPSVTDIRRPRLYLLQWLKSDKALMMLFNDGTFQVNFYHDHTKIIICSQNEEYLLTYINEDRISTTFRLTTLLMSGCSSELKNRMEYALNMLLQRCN
# Chain of UniProt P42336 (whole entry, unmodified, looked up): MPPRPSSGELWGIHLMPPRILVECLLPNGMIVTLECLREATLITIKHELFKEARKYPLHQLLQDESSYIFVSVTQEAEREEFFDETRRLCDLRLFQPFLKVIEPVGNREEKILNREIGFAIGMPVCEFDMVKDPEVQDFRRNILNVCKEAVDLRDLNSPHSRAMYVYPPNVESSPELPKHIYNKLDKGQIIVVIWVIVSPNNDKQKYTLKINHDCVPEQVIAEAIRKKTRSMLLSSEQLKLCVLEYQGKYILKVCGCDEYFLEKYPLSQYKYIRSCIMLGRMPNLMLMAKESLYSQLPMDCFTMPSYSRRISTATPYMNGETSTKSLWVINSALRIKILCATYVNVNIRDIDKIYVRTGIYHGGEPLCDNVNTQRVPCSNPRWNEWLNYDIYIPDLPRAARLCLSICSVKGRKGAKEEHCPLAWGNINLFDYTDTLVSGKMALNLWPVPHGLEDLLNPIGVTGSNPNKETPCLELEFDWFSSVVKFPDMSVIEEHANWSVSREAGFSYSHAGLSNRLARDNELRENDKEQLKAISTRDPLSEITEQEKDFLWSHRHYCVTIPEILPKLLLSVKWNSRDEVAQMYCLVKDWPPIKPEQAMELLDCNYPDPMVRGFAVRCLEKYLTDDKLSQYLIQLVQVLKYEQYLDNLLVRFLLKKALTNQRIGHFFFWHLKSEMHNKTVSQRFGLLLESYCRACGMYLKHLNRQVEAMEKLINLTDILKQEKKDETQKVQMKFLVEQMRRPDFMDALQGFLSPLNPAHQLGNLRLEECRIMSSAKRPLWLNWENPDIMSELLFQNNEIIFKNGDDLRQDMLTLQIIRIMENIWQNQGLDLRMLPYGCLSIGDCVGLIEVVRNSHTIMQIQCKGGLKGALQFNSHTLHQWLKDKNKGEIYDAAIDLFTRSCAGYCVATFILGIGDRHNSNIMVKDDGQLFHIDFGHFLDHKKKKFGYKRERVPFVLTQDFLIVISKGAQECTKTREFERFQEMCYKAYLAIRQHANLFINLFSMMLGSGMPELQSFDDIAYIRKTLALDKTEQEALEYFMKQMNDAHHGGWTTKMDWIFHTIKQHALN
# Chain of UniProt P21709 (whole entry, looked up): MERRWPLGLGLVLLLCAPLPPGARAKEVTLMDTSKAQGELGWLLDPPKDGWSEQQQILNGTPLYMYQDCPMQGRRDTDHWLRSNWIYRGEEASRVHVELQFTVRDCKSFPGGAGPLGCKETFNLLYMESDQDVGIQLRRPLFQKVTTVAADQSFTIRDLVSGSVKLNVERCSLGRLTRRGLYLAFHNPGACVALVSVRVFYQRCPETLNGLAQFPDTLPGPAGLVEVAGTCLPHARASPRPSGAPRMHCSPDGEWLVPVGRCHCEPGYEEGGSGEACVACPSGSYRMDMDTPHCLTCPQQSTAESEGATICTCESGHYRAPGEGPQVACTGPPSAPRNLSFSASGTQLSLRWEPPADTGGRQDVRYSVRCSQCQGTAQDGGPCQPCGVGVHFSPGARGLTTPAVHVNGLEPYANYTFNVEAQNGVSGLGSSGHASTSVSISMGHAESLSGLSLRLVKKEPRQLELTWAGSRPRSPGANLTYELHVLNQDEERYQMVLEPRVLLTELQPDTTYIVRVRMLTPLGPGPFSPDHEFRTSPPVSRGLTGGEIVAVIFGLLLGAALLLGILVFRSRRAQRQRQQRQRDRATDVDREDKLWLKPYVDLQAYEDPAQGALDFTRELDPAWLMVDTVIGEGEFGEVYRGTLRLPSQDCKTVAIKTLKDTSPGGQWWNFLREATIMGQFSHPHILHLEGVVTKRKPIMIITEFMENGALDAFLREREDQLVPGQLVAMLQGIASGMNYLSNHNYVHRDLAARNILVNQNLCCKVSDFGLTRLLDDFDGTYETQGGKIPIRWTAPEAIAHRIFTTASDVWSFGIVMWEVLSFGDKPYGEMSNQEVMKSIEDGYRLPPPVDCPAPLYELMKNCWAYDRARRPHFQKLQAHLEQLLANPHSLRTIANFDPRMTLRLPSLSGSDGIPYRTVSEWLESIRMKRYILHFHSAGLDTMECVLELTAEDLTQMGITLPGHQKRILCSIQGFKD
# Chain of UniProt O14757 (whole entry, looked up): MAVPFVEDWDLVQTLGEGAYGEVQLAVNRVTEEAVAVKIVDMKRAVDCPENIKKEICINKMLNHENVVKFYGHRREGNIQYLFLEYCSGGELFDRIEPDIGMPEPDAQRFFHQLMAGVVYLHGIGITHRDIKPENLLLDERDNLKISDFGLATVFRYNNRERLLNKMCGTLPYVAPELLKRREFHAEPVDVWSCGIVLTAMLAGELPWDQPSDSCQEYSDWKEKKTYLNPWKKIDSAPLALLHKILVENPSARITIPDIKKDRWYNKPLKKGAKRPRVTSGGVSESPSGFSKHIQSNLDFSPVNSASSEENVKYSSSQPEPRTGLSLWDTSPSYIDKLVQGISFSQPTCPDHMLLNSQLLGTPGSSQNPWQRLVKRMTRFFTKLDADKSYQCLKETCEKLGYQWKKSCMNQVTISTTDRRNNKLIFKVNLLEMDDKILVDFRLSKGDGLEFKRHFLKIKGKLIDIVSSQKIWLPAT

# Set 1
# Structure (SMILES): O=C(NCc1ncc(C(F)(F)F)cc1Cl)c1ccc2c(c1)C1(CCS(=O)(=O)CC1)[C@H](C1CC1)N2S(=O)(=O)c1ccc(F)cc1
# Tested at: 1 µM
target,read-out,technique,remaining binding
"Tyrosine-protein kinase Blk (BLK, Homo sapiens, UniProt P51451)",cell-free assay,competition with immobilised ligand,78%
"Ephrin type-A receptor 1 (EPHA1, Homo sapiens, UniProt P21709)",cell-free assay,competition with immobilised ligand,100%
"Insulin-like growth factor 1 receptor (IGF1R, Homo sapiens, UniProt P08069)",cell-free assay,competition with immobilised ligand,100%
"Serine/threonine-protein kinase PAK 1 (PAK1, Homo sapiens, UniProt Q13153)",cell-free assay,competition with immobilised ligand,100%
"Rhodopsin kinase GRK1 (GRK1, Homo sapiens, UniProt Q15835)",cell-free assay,competition with immobilised ligand,80%
"Fibroblast growth factor receptor 3 (FGFR3, Homo sapiens, UniProt P22607)",cell-free assay,competition with immobilised ligand,100%
"Dual specificity mitogen-activated protein kinase kinase 3 (MAP2K3, Homo sapiens, UniProt P46734)",cell-free assay,competition with immobilised ligand,71%
"Protein kinase C eta type (PRKCH, Homo sapiens, UniProt P24723)",cell-free assay,competition with immobilised ligand,100%
"Epidermal growth factor receptor (EGFR, Homo sapiens, UniProt P00533, del752-759)",cell-free assay,competition with immobilised ligand,100%
"Phosphatidylinositol 4,5-bisphosphate 3-kinase catalytic subunit alpha isoform (PIK3CA, Homo sapiens, UniProt P42336, E542K)",cell-free assay,competition with immobilised ligand,94%
"Activin receptor type-1 (ACVR1, Homo sapiens, UniProt Q04771)",cell-free assay,competition with immobilised ligand,100%
"Fibroblast growth factor receptor 2 (FGFR2, Homo sapiens, UniProt P21802)",cell-free assay,competition with immobilised ligand,86%
"Tyrosine-protein kinase receptor TYRO3 (TYRO3, Homo sapiens, UniProt Q06418)",cell-free assay,competition with immobilised ligand,100%
"Protein kinase C delta type (PRKCD, Homo sapiens, UniProt Q05655)",cell-free assay,competition with immobilised ligand,100%
"Wee1-like protein kinase (WEE1, Homo sapiens, UniProt P30291)",cell-free assay,competition with immobilised ligand,82%
"Vascular endothelial growth factor receptor 3 (FLT4, Homo sapiens, UniProt P35916)",cell-free assay,competition with immobilised ligand,92%
"Hepatocyte growth factor receptor (MET, Homo sapiens, UniProt P08581)",cell-free assay,competition with immobilised ligand,100%
"Calcium/calmodulin-dependent protein kinase kinase 1 (CAMKK1, Homo sapiens, UniProt Q8N5S9)",cell-free assay,competition with immobilised ligand,100%
"Tyrosine-protein kinase ABL1, phosphorylated (ABL1, Homo sapiens, UniProt P00519, F317I)",binding,,83%
"Casein kinase I isoform delta (CSNK1D, Homo sapiens, UniProt P48730)",cell-free assay,competition with immobilised ligand,85%

# Set 2
# Target: Calcium/calmodulin-dependent protein kinase type II subunit alpha (CAMK2A, Homo sapiens, UniProt Q9UQM7)
# Chain of UniProt Q9UQM7 (whole entry, looked up): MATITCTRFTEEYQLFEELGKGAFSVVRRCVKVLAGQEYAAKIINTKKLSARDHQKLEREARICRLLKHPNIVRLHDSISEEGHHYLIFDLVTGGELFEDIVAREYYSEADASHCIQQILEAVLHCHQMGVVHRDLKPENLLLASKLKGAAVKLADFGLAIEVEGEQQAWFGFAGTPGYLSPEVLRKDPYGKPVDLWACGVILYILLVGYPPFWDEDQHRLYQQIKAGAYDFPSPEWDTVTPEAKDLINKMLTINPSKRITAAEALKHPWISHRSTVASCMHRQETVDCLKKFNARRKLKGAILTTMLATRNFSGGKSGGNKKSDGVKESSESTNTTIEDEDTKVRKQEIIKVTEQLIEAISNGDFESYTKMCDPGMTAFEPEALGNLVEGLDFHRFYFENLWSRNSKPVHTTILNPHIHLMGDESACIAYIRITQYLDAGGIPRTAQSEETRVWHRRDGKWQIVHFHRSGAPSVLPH
# Read-out: enzyme activity
# Action: inhibitor
# Tested at: 10 µM
Compound,inhibition
Cc1c(C(=O)NN2CCCCC2)nn(-c2ccc(Cl)cc2Cl)c1-c1ccc(Cl)cc1,-4%
CN(C)CCCOc1nn(Cc2ccccc2)c2ccccc12,-4%
C[C@H]1C[C@H]2[C@@H]3CCC4=CC(=O)C=C[C@]4(C)[C@H]3C(=O)C[C@]2(C)[C@@]1(O)C(=O)CO,5%
CC(C)=CC(=O)C[C@H](C)c1ccc(C)cc1,-7%
CC(O)c1cc(C(=O)N[C@@H](C)Cn2ccc(-c3ccc(C#N)c(Cl)c3)n2)n[nH]1 (stereo partly shown),-5%
CCCCCCCCCCCCCCCCC(=O)OC,-18%
CNC(=O)c1cccnc1,3%
C[C@]12C=CC(=O)C=C1CC[C@H]1[C@@H]3C[C@@H](O)[C@](O)(C(=O)CO)[C@@]3(C)C[C@H](O)[C@@]12F,-1%

# Set 3
# Compound: O=C1Nc2ccc(Br)cc2/C1=C/c1cc2c([nH]1)CCCC2
# Read-out: enzyme activity
# Action: inhibitor
# Tested at: 0.5 µM
# Reference: control
target,remaining activity [%]
"Interleukin-1 receptor-associated kinase 4 (IRAK4, Homo sapiens, UniProt Q9NWZ3)",67.2
"Mitogen-activated protein kinase 13 (MAPK13, Homo sapiens, UniProt O15264)",100
"Casein kinase II subunit alpha (CSNK2A1, Homo sapiens, UniProt P68400)",96.1
"Serine/threonine-protein kinase 38 (STK38, Homo sapiens, UniProt Q15208)",80.1
"Ephrin type-A receptor 5 (EPHA5, Homo sapiens, UniProt P54756)",91.3
"MAP kinase-interacting serine/threonine-protein kinase 2 (MKNK2, Homo sapiens, UniProt Q9HBH9)",87.1
"Leucine-rich repeat serine/threonine-protein kinase 2 (LRRK2, Homo sapiens, UniProt Q5S007)",7.03
"Serine/threonine-protein kinase PLK2 (PLK2, Homo sapiens, UniProt Q9NYY3)",102
"Serine/threonine-protein kinase WNK2 (WNK2, Homo sapiens, UniProt Q9Y3S1)",101
"Protein kinase C delta type (PRKCD, Homo sapiens, UniProt Q05655)",95.6
"cGMP-dependent protein kinase 1 (PRKG1, Homo sapiens, UniProt Q13976)",77
"Tyrosine-protein kinase BTK (BTK, Homo sapiens, UniProt Q06187)",90.5
"Mitogen-activated protein kinase kinase kinase kinase 2 (MAP4K2, Homo sapiens, UniProt Q12851)",58.1
"Protein kinase C iota type (PRKCI, Homo sapiens, UniProt P41743)",92
"Serine/threonine-protein kinase Chk1 (CHEK1, Homo sapiens, UniProt O14757)",81.8
"Mitogen-activated protein kinase 12 (MAPK12, Homo sapiens, UniProt P53778)",93
"Serine/threonine-protein kinase Nek4 (NEK4, Homo sapiens, UniProt P51957)",80.5
"Tyrosine-protein kinase Lyn (LYN, Homo sapiens, UniProt P07948)",70.8
"Cyclin-dependent kinase 9, with cyclin T1 (CDK9, Homo sapiens, UniProt P50750)",90
"RAC-gamma serine/threonine-protein kinase (AKT3, Homo sapiens, UniProt Q9Y243)",96.6
"Mast/stem cell growth factor receptor Kit (KIT, Homo sapiens, UniProt P10721)",30.5
"Dual specificity mitogen-activated protein kinase kinase 6 (MAP2K6, Homo sapiens, UniProt P52564)",110
"Casein kinase I isoform alpha (CSNK1A1, Homo sapiens, UniProt P48729)",100

# Set 4
# Target: Beta-1 adrenergic receptor (ADRB1, Homo sapiens, UniProt P08588)
# Chain of UniProt P08588 (whole entry, looked up): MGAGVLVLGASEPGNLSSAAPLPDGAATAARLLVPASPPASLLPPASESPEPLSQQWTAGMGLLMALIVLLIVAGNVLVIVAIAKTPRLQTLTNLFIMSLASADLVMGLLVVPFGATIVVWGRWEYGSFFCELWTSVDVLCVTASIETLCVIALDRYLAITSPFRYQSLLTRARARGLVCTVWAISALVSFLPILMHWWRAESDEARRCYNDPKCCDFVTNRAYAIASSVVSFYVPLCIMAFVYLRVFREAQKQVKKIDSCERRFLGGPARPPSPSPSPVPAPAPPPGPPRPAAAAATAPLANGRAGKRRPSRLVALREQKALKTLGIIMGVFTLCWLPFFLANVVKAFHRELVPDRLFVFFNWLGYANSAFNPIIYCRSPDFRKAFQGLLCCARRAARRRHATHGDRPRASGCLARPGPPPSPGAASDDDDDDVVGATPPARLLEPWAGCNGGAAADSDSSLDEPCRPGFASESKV
# Action: agonist
SMILES,EC50 [µM]
Cc1noc2c(-c3cccnc3NCCCn3ccnc3)cc(-c3ccccc3)nc12,≥ 100
Fc1ccc(-c2nnc3ccc(N4CCc5ccccc5CC4)nn23)nc1,≥ 100
CC(C)Cc1cc(CC2(NCc3ccc(N(C)C)cc3)COC2)no1,≥ 100
COc1ccccc1C1CNC(=O)c2nc(CCN3CCC(C)CC3)[nH]c2C1 (stereo not shown),≥ 100
c1ccc(-c2n[nH]c3ncc(-c4cn[nH]c4)nc23)cc1,≥ 100
Cc1noc2c(NC3CCC(O)CC3)cc(-c3ccc(F)cc3)nc12 (stereo not shown),≥ 100
Cc1cc2ncn(CC(O)COc3ccc4ccccc4c3)c2cc1C (stereo not shown),≥ 100
